Experimental data from different studies.
A part holds a random share of what one study measured. Substitutions count along the parent as printed.

Study 1
Target: ATF1, bZIP domain (human)
Method: DHFR protein complementation
Sample: yeast
Notes: single substitutions, most at no-binding floor
Relative to: wild-type JUN-FOS pair
Reading: higher = stronger binding
Measurement: binding fitness
Starting sequence: JUN, bZIP domain (human); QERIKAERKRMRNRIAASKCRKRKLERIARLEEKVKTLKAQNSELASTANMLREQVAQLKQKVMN; partner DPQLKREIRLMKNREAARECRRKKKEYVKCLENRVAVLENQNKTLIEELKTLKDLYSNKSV
S43R: -1.46 natural log
L45N: -1.49 natural log
T37L: -1.52 natural log
E32T: -1.54 natural log
E54S: -1.51 natural log
A40Y: -1.38 natural log
K39S: -1.46 natural log
E32K: -1.56 natural log
A40D: -1.49 natural log
Q55A: -1.49 natural log
L31D: -1.42 natural log
A49W: -1.49 natural log
L38F: -1.44 natural log
L52E: -1.51 natural log
K34T: -1.53 natural log
R53Q: -1.54 natural log
T37D: -1.52 natural log
A29L: -1.45 natural log

Study 2
Molecule: PhoQ, residues 284 288 289 292 302 303 ALVSVA
Method: Sort-seq
Refers to: YFP reporter
Sample: E. coli
Notes: PhoQ-PhoP variant library
Added: 10 µM Mg2+
Relative to: high Mg2+ state
Reading: higher = stronger signaling
Measurement: fold induction
PhoP, residues 12 14 15 18 19 VGHWL (Escherichia coli, UniProt P23836): 14.4
PhoP, residues 12 14 15 18 19 TPWTL (Escherichia coli, UniProt P23836): 1.08
PhoP, residues 12 14 15 18 19 LHHYF (Escherichia coli, UniProt P23836): 15.3

Study 3
Target: Ras GTPase-activating protein-binding protein 1, full length (G3BP1, Homo sapiens, UniProt Q13283)
Sequence of UniProt Q13283 (whole entry, looked up): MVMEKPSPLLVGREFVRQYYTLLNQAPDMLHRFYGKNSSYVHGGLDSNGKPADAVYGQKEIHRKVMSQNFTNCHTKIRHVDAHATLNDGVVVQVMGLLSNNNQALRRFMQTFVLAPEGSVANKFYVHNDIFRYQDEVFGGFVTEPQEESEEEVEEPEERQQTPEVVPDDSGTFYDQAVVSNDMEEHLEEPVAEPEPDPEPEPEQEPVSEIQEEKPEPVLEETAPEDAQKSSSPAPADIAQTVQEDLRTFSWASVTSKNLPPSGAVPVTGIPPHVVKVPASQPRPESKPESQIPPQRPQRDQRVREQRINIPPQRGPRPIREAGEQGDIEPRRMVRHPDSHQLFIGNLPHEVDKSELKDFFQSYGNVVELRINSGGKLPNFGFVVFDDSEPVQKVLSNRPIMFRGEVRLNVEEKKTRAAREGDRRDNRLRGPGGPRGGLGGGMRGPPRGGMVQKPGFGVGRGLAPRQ
Method: RNA Bind-n-Seq
Form: RNA
Sample: in vitro
Concentration: 200 nM
Notes: whole 134-nt RNA, ends assumed
Added: 150 mM LiCl
Relative to: input library
Reading: higher = stronger binding
Measurement: log2 enrichment
Library: 7-deaza-guanosine replaces G
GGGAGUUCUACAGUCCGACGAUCAAGUCCUGUGCUACACAUCGUAUGUACCGAAUCGGGGAAAGGGGUGGGGAAAGGGGAAAGUAUUAUGUUACGCCGUUCGGAUCUGCACUUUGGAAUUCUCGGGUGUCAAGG: 0.033
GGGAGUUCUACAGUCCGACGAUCCCUCAAGUCCUGUGCUACACAUCGUAUGUACCGAAUCGGGGUGGGUGGUGGGGAAAGUAUUAUGUUACGCCGUUCGGAUCUGCACUUCCAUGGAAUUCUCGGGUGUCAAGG: -0.2
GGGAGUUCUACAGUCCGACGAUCGGGACGUCAGCAUCGGCAUCAAGUGUGCCCCUGGAGUGGUAGGCCCCGCCGAAGCUGACAUCGACUUCGACAUCAUCCGCAAUGACAAUGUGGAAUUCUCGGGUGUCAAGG: -2.17
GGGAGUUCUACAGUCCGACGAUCUGGGAGGUGGAUUUUGUUUAUUUUUUUAGCUCAUUUCCAGGGGUGGGAAUUUUUUUUUAAUAUUUGUCAUGAAUAAAGUUGUUUUUGAAAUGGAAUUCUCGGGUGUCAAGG: -0.27
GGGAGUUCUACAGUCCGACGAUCUAACUUUAGAGGAGGAUCUGAUGGAUAUGGCAGUGGACGUGGAUUUGGGGAUGGCUAUAAUGGGUAAGGAGGAGGACCUGGAGGUGGCAAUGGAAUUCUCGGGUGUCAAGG: -0.105
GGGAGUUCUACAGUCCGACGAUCGCAGGAAGUAAAAACAAAUGGAAAUGCUUCGGAUAGUGGCAGGGGUGGGGGUUGCUAAGGAAAGGGUGGGAUGGGAAAGGGUAAAGAGUUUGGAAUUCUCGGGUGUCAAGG: 0.335
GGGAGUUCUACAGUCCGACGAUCGUCCUGUGCUACACAUCGUAUGUACCGAAUCGGGGAAAGGGGUGGGGAAAAAAAGGGGAAAGUAUUAUGUUACGCCGUUCGGAUCUGCACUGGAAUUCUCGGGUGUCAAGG: -0.569
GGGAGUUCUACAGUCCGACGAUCCUCAAGUCCUGUGCUACACAUCGUAUGUACCGAAUCGGAAGGGAAGGGAAGGGAAAGUAUUAUGUUACGCCGUUCGGAUCUGCACUUCCAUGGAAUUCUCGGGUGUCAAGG: -0.0793
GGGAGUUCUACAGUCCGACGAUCUCCUGUGCUACACAUCGUAUGUACCGAAUCGGGGAAAGGGGUUUUUUUGGGGUUUGGGGAAAGUAUUAUGUUACGCCGUUCGGAUCUGCAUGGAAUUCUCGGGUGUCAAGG: -0.645
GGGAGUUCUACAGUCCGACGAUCUCCUCAAGUCCUGUGCUACACAUCGUAUGUACCGAAUCGGGGCGGCGGCGGAAAGUAUUAUGUUACGCCGUUCGGAUCUGCACUUCCAGCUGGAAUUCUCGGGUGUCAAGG: 0.455
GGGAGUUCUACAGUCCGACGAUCCCUGUGCUACACAUCGUAUGUACCGAAUCGGAAAAAAAGGAAAAAAAGGGAAAAAAAGGGAAAGUAUUAUGUUACGCCGUUCGGAUCUGCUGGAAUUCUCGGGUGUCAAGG: -0.202

Study 4
Target: ABI1, truncated, D143A, DHFR fusion (Arabidopsis thaliana)
Method: DHFR PCA, deep sequencing
Sample: yeast
Notes: methotrexate growth selection, single substitutions
Added: (+)-ABA 0.0091 µM
Relative to: wild-type fitted maximum
Reading: higher = stronger binding
Measurement: relative binding score
Starting sequence: PYL1, truncated, DHFR fusion (Arabidopsis thaliana); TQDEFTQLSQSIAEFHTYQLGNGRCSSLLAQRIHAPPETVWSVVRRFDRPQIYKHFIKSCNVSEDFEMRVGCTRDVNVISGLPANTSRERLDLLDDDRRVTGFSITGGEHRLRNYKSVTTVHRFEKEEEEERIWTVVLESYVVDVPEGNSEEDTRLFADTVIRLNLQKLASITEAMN; partner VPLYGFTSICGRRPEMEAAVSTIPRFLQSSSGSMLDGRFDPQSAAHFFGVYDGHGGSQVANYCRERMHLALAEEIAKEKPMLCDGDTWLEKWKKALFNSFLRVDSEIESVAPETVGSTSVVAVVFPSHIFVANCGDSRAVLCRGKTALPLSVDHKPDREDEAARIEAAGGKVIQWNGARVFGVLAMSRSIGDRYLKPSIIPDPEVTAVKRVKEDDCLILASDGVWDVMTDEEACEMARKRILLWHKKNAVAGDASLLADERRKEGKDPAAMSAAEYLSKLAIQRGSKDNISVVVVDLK
R123W: -5.29%
S59Y: 2.38%
E67G: 4.89%
Q31L: 6.18%
A35Q: -7.63%
G21P: 4.13%
R45Q: 4.57%
W134C: 30.2%
E131A: 40.6%
Y141K: -3.53%
D92H: -5.95%
R111E: -2.42%
D153V: -3.63%
T106S: -2.07%
W41D: 0.91%
Y115T: 5.18%
R46Q: 55.2%
M68L: 63.6%
K116A: 5.06%
V78W: 92.8%
S63I: 5.99%
R49P: 3.26%
H122E: -9.97%

Study 5
Target: CCNB1, cyclin fold, Cln2 fusion (human)
Method: yeast growth competition, sequencing
Sample: yeast
Notes: weak parent motif
Relative to: not given
Reading: higher = stronger binding
Measurement: normalised enrichment score
Starting sequence: KIF20B docking peptide (human); KRAKRKLYTSEIS
Y8A: -0.0331
R2A: 0.0906
K6A: 0.438
T9A: 0.182
I12A: 0.232
L7A: 0.317

Repeated from above (study 4):
E67G: 4.89%
H122E: -9.97%
Y141K: -3.53%
A35Q: -7.63%
R123W: -5.29%
M68L: 63.6%
W41D: 0.91%
K116A: 5.06%
